# Experimental data from different studies.
# Numbered parts are unrelated; each lists some results of a single study. Positions count from the first letter of the parent shown.

# Block 1 — technique: protein-binding microarray; molecule type: double-stranded DNA, one strand shown; sample: in vitro; tested at: 250 nM; setting: 60-bp whole probe; added: salmon DNA 0.4 mg/ml; reference: random background probes; reading: higher = stronger binding; constant ends, left off below: GCCTAGCAC … GTCTTGATTCGCTTGACGCTGCTG
# Target: Interferon regulatory factor 7, full length, phosphomimetic (IRF7, Homo sapiens, UniProt Q92985, residues 1-503, S101K/S471D/S472D/S475D/S476D/S477D/S483D/S484D/S487D)
# Residues (chain): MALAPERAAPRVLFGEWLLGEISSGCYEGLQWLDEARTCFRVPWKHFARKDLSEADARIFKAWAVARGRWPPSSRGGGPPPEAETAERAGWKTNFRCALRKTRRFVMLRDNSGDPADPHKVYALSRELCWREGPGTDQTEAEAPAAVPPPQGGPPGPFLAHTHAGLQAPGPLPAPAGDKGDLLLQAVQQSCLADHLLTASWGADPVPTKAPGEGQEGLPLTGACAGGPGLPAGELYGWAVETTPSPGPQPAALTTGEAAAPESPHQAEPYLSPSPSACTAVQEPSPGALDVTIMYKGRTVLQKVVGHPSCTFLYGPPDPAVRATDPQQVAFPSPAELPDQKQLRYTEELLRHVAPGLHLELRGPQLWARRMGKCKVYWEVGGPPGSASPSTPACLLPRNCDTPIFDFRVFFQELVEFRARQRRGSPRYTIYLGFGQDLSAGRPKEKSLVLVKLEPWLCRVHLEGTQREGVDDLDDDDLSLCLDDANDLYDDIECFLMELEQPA
Sequence,log fluorescence [z-score]
GACGATTTCAGACTGGTGACGTGCTAG,0.17
TGAGATTTCGGGTATCGATTAGTGCTA,1.58
GATGGACTGGGGTATCGGGACGTGCTA,-0.653
GACGGTCTAGGTATCGGGACGTGCTAG,-0.0868
TAAGATTTCAGTATCGATTAGTGCTAG,1.41
TTAGGTATCCTACTGTTTTAGTGCTAG,0.291
GACGGTCGCGGTCTCGGGACGTGCTAG,-0.222
TGAGGTATCGGTCTCGGTTAGTGCTAG,1.23
GACAGACTGGACTTTCGGGACGTGCTA,-0.383
CTAGGACTGGGGTTTCGGTTAGTGCTA,5.03
TTAGAACTGGGGACTGAATTAGTGCTA,-0.406
TCAAGTTTTCATTTTCTACTGTGCTAG,3
GTCGGTATCCTTTTCCTGACGTGCTAG,1.76
TTAGATATCAGTTACGATTAGTGCTAG,0.544
TTAGATATCAGTTTCCATTAGTGCTAG,2.8
TTAGATATCGGGGATCGATTAGTGCTA,0.316
TTAGATCTCAGACTGGATTTGTGCTAG,-0.204
TTAGATCTGAGACTGGATTAGTGCTAG,0.0148
ACTCATTTTCATTTTGTGTCGTGCTAG,2.38
TTAAAACTGGGGTTTCGATTAGTGCTA,6.9
TCACCTTTCAGTTTTCCACTGTGCTAG,1.11
GACGATTTCGGGTTTCGAGTCGTGCTA,7.49
TCATGTCTGTTTCCTCTTACTGTGCTA,1.68
TCAATTTCCATTTTCTAACTGTGCTAG,2.65

# Block 2 — technique: DHFR PCA, deep sequencing; sample: yeast; added: (+)-ABA 0.39 µM; reference: wild-type fitted maximum; reading: higher = stronger binding
# Target: ABI1, truncated, D143A, DHFR fusion (Arabidopsis thaliana)
# Setting: methotrexate growth selection, single substitutions
# Starting sequence: PYL1, truncated, DHFR fusion (Arabidopsis thaliana); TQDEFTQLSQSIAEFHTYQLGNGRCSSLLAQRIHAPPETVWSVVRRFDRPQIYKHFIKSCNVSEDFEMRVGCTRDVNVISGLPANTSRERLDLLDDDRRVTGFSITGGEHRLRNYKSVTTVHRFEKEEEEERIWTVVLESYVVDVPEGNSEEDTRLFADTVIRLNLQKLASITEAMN; partner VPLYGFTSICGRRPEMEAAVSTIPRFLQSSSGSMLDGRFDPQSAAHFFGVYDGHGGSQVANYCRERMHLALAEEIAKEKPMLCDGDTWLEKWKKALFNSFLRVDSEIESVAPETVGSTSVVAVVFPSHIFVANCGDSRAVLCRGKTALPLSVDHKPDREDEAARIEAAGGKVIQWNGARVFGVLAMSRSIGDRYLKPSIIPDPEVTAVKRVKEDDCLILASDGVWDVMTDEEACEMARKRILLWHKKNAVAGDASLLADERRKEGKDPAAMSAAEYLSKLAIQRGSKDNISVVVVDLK
Substitution,relative binding score
E64T,36.4%
N61R,61.3%
E67M,12.8%
I57T,-8.9%
M176S,15.2%
R74V,-10.3%
R113D,-6.3%
C72D,39.5%
T119Q,15.1%
R111C,6.01%
E89W,7.79%
E147S,21.6%
V145L,-16.5%
V100P,-4.27%

# Block 3 — technique: protein-binding microarray; molecule type: double-stranded DNA, one strand shown; sample: in vitro; tested at: not given; reading: higher = stronger binding
# Target: Hepatocyte nuclear factor 3-beta, forkhead domain (FOXA2, Homo sapiens, UniProt Q9Y261, residues 142-269)
# Setting: k-mer, scored over probes, only values ≥0.25
# Construct (chain): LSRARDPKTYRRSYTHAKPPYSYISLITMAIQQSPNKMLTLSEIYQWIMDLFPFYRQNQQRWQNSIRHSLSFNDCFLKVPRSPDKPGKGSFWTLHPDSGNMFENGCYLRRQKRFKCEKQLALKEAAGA
Sequence,E-score
ACATAACG,0.306
GTACACAC,0.397
AACATACT,0.265
GAGTAAAC,0.298
CTTCTACA,0.26
ATACATCA,0.309
GATACAGA,0.254
AGTGTTGA,0.262
ACAGACAA,0.354
TGCATAAA,0.259
GATATCCA,0.26
ATTAGTTG,0.317
CACATTTA,0.331
GTGTATTA,0.364
AAATATAG,0.29
ATAACTAT,0.305
AGATAATA,0.281

# Block 4 — technique: RNA Bind-n-Seq; molecule type: RNA; sample: in vitro; tested at: 365 nM; reference: no-protein control; reading: higher = stronger binding
# Target: RNA binding protein fox-1 homolog 2, RRM domain, GST-SBP tag (RBFOX2, Homo sapiens, UniProt O43251-10, residues 100-194)
# Setting: natural RNA segment, single round, ends assumed
# Constant ends, left off below: GGGAGUUCUACAGUCCGACGAUC … UGGAAUUCUCGGGUGCCAA
# Residues (chain): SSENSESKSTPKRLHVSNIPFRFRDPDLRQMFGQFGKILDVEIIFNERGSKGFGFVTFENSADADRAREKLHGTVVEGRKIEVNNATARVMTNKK
Sequence,RBNS enrichment (R)
UGGCCCUGCCUUUACCAUAUCAGUGACAGAGAGAGGCUGCUUCAGGUCUGAGGCUAUCCCUCAGCCAUGCAUAAAGUCCAAGAGAACCAACUGGCUCCUGGUCUCUAGCC,0.476
GCAAGCCCCCAGCCCUUCCUGAAGCCCGUGCUCUGCCCAGCACUCGGAUGCUGCUCUUUUCUUGCUUACCAACCAACUCCAUUUGCUUGUGAUGGCCCCAUUUUUACAGU,11.3
AUGAUGAUUGGUGUAGAAACGUAUGGGUCUGGGUGGCCUUUUACAUCUUGCCUACCAUUGCAUGAAACAUUGGGGUUUCUUCAAAAUGUGUGUGUCAUACUUCUUUUGGG,1.97
UUUGUUUGUUUGUUUGUUUGUUUGUUUUUGGCCCCCACGACAAGUCUUCUACUCUAGAAGAAAGACUUUGGAAGCAGCUGCUGCUGCUGCCACCACUCCUGUCAGCAAGU,4.33
UCCACCACAAGAUGGAGAUGGUCAGCACAAACCGAUUCUGUUCCUCUUUAAAGUGUAUAUUAGCCACUUAGCAAUCUCUAUAUUCUUUCAAGUAACCAAGCUGUUGACUU,0.31
CAAGACCCCAAACAGUACUUUUACUUUGUUUGUACAAAAACAAAGACAUAUAGCCAAUACAAAUCAAAUGCCGGAGGUGUUUGAUGCCAUAUUUGCAAAUUGCCAUCUAU,0.355
UGCUCCUGGGAUGCUAACCUGAUGGCCAUAGACACGGUGGGCUGGAGGCGUGGCUGGAUCUGCCCAAUCCUUCCUCAGGACCAGCCUCUCCCUUAGUAACUUGAAGGAAG,0.445
CUCAACCCAGCUUUUUGUCAUUCACUUCCUUUUGUUCUCUCUCUGGUCACUGCCCUUACCUGACCCUCACAGAAAGAGAGCUCUGAGCAGGUGAGGGGGUCUGCGGUGGC,0.846
UAUUAAACACUAACAUCUGAGUUUCACCUAAUCUGUUUCUGUGCCAUAUACUGGGUAUCCAAGCUCUGGGAAGUUAUCCUACCAGGCCCUGAUCUGUUGAUAAGGCACUA,0.338
UCACUGACUGGGUCUCUUCAGCUGUCAUCAGGCUUCCACCAGAAGAACAAACAACAACAAAAAAAGCCAAUGAAGCCAUGUGCUGUCCUUAGGCAGACGUACUUGUCUCC,0.46
AGGUUUCUGUAAACCUGAAGCCUUGGUGCAUAGAGGGCUUUGUGGAAGCACAUAGUCAGCGGCUGGGGUUGAAGAGUGAGUGUCACCAUGCCUUUUAGUGGAGACCUGCA,1.4
GGUCCUCCACCCCUCAGCGACACCCACCGCCCGAGAAACUACAGACAAUGGCCACAAGUUUGGCGUCCUUCAAUUUAAUUCUUUAAAGAAGUGCUGGGAAGAAAAAGCUA,0.465

# Block 5 — technique: protein binding microarray; molecule type: double-stranded DNA, one strand shown; sample: in vitro; tested at: not given; reference: not given; reading: higher = stronger binding
# Target: Histone acetyltransferase KAT6A, winged helix 1, GST fusion (KAT6A, Homo sapiens, UniProt Q92794, residues 1-85)
# Setting: 8-mer, flanks averaged, mean of 2 arrays, mostly near background
# Residues (chain): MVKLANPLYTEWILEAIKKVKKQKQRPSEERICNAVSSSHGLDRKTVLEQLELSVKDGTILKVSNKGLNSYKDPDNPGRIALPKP
Sequence,E-score
GATATGCA,-0.0715
ACTCCCCC,0.0581
CGTCTCGA,-0.116
CCGCCGGA,0.467
ATACGCAA,0.106
TATTCGAA,-0.145
CTCGCACA,0.0954
ATACACAC,-0.118
GCTACCAA,0.0501
CACCCCGC,0.367
ATAGGGTA,-0.159
CGCCGGCC,0.455
AAGTATCG,-0.00811
GTCAGCAA,-0.0907
ATCAGTAA,-0.0928
GCCTGACA,-0.0587
GACCGAGC,0.0967
AAGGCCAG,-0.0756

# Block 6 — target: FOSL1, bZIP domain (human); technique: DHFR protein complementation; sample: yeast; reference: wild-type JUN-FOS pair; reading: higher = stronger binding
# Setting: single substitutions, most at no-binding floor
# Starting sequence: JUN, bZIP domain (human); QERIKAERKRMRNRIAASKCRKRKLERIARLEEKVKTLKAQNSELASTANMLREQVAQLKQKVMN; partner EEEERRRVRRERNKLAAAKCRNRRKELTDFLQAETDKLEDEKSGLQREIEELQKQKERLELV
Substitution,binding fitness [natural log]
V35G,-1.35
S47D,-0.265
T37G,-0.529
K39P,-1.36
T48H,-0.432
K39W,-1.25
K34T,-0.508
A46H,-0.501
A29H,-0.413
A57H,-0.488
K39M,-0.856
K36Q,-0.394
A57P,-1.41

# Block 7 — target: CCNB2, cyclin fold, Cln2 fusion (human); technique: yeast growth competition, sequencing; sample: yeast; setting: weak parent motif; reference: not given; reading: higher = stronger binding
# Starting sequence: E2F1 docking peptide (human); PPVKRRLDLETDH; partner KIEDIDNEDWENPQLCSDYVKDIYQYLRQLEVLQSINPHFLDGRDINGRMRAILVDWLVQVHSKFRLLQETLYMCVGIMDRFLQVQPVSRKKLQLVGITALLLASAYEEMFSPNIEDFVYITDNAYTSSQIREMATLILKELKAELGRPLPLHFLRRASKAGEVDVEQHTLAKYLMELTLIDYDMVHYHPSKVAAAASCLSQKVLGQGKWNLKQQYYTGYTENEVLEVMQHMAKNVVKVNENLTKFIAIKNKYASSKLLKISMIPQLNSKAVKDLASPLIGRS
Substitution,normalised enrichment score
D12K,0.38
L7S,-0.0058
P1W,0.864
R6N,-0.0626
R5A,0.326
H13Q,0.139
T11G,0.159
P2S,0.182
L7G,0.208
T11D,0.378
R6T,0.246
E10D,1.14
D12E,0.256
P2E,0.505
R6W,0.299
D8Y,-0.21

# Single results of other studies
Molecule,target,test,test system,conditions,scale,measurement,value
"PhoQ, residues 284 288 289 292 302 303 NSMLDC","PhoP, residues 12 14 15 18 19 TPWLV (Escherichia coli, UniProt P23836)","Sort-seq, measured: YFP reporter",E. coli,"PhoQ-PhoP variant library, added: 10 µM Mg2+","reference: high Mg2+ state, higher = stronger signaling",fold induction,13.5

# Repeated from above (block 2):
Substitution,relative binding score
E64T,36.4%
N61R,61.3%
E67M,12.8%
I57T,-8.9%
M176S,15.2%
R74V,-10.3%
R113D,-6.3%
C72D,39.5%
T119Q,15.1%
R111C,6.01%
E89W,7.79%
E147S,21.6%
V145L,-16.5%
V100P,-4.27%
